Published values from different studies.
Each line is one published result; not all experiments were run side by side. Numbers after ± are the reported error. ≈ marks a conversion by molar mass, not a printed value.

Amino acid sequences for entries named in this document (tags omitted). A change or cut given only in a name is not applied to a line headed by its entry. Residues count along the entry.
UniProt P22307, 425-547 limits assumed: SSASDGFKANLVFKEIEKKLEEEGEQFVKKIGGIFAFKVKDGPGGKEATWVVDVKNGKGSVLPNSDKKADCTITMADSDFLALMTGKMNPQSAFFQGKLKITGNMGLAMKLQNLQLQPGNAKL
UniProt Q62645, 28-1323 limits assumed: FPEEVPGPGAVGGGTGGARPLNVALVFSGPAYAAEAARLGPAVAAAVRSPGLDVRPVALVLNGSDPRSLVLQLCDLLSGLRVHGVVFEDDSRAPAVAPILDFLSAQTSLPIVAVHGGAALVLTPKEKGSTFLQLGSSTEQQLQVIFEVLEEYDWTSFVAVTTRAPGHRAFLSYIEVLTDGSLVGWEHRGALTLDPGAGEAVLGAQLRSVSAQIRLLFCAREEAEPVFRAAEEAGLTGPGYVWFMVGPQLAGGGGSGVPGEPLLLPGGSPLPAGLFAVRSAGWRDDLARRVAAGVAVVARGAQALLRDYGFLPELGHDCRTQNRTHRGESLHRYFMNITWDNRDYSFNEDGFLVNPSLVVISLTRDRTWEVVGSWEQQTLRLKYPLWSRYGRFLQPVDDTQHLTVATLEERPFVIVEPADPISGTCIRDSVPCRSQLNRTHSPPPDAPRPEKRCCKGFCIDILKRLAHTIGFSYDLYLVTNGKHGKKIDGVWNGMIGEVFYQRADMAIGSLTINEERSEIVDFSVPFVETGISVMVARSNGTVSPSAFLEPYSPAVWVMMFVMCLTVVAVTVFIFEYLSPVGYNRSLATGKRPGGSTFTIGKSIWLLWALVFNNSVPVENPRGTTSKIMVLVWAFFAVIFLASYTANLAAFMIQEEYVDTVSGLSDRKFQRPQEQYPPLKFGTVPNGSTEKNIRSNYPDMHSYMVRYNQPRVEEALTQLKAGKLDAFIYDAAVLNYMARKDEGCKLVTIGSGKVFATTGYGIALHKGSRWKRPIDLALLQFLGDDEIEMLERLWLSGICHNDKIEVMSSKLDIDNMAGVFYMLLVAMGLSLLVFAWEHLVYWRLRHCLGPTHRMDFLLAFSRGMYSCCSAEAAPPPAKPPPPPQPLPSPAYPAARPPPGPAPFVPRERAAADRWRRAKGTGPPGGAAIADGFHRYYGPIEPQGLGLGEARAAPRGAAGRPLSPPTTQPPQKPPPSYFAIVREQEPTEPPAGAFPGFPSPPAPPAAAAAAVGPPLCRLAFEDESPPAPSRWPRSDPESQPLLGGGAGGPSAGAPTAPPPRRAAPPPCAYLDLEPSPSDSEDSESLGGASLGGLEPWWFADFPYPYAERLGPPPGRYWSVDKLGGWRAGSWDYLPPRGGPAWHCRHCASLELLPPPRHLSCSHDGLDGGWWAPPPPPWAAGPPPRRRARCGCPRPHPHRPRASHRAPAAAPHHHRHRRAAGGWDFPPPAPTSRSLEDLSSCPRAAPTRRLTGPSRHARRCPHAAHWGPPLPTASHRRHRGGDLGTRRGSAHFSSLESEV
UniProt P94556, whole entry: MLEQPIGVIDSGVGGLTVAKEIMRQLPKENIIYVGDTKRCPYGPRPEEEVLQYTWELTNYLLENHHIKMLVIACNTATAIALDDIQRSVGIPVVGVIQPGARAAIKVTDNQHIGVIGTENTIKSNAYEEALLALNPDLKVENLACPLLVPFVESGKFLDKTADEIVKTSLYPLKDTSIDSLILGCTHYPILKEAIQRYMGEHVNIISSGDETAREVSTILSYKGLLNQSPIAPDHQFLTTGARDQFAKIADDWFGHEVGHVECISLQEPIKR
UniProt Q14289, whole entry: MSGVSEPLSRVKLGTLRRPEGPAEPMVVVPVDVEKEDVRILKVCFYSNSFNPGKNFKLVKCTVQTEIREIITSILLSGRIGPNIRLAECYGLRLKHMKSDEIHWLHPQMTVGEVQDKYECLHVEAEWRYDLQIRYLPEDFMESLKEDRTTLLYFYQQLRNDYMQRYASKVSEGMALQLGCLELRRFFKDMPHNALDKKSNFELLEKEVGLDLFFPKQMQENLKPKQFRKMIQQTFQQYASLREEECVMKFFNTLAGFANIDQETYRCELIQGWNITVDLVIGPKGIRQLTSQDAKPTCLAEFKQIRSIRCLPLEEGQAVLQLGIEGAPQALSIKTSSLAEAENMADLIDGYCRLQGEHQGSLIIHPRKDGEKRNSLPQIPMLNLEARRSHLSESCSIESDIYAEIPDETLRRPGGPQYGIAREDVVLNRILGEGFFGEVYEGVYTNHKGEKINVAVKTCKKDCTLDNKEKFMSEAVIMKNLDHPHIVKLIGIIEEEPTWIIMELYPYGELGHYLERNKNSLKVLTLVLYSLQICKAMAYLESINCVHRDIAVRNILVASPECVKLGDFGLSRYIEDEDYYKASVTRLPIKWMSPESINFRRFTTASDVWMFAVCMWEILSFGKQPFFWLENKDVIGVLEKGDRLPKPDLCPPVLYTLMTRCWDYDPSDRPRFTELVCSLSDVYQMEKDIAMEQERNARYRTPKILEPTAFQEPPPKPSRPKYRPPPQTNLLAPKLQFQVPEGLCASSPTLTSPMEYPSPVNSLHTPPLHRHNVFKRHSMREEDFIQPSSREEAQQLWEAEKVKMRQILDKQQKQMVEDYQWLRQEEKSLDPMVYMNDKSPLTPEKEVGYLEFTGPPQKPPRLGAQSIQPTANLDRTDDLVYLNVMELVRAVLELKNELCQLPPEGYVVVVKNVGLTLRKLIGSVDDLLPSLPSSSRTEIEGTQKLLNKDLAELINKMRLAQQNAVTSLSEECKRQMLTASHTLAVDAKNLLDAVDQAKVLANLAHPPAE
UniProt P34972, whole entry: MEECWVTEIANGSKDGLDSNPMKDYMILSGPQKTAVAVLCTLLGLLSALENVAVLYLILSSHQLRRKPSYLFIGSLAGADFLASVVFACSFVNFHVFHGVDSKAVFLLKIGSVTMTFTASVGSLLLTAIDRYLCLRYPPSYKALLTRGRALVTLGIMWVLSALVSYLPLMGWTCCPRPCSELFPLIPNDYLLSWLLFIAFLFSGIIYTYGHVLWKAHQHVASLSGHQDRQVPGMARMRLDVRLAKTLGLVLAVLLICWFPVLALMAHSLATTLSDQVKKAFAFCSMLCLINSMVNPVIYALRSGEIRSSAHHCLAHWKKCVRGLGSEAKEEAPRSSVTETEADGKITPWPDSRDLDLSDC
UniProt Q15391, whole entry: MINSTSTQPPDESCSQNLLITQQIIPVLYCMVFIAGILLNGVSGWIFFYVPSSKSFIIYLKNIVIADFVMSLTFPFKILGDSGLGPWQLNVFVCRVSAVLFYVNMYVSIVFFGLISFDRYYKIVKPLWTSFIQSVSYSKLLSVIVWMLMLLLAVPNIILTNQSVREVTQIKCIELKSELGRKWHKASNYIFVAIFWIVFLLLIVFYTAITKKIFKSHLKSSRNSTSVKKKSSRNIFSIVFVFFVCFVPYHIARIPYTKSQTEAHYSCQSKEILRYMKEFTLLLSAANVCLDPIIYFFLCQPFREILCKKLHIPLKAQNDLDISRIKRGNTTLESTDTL
UniProt P40261, whole entry: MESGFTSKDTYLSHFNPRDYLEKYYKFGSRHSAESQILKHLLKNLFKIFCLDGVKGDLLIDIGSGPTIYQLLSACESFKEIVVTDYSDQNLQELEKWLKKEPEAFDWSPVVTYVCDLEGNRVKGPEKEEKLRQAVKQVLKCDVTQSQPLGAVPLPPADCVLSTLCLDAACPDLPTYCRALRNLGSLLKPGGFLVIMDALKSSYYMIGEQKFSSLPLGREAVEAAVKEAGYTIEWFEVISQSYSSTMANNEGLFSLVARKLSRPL
UniProt P21728, whole entry: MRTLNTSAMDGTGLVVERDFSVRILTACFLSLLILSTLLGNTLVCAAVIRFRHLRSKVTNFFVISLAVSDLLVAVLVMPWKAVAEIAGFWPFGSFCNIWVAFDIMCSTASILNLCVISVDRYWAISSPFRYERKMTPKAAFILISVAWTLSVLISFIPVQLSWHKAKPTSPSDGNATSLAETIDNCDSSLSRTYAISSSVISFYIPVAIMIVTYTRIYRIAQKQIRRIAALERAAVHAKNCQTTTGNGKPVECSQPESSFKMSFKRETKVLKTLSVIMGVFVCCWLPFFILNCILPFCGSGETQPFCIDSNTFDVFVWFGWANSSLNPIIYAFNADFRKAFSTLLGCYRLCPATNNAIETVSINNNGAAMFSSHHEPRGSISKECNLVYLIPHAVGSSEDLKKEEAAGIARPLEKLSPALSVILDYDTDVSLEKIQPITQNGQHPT

COc1cc([N+](=O)[O-])cc2c1NC(c1ccc(Br)cc1)=NO2  Ki (Sterol carrier protein 2 (Homo sapiens, UniProt P22307); binding, fluorescence; with: NBD-stearic acid 500 nM): 3.9 ± 0.1 µM
CCN(CC)C(=O)Oc1ccc(C(=O)Nc2cccc3cc[nH]c23)cc1  association rate constant (Glutamate receptor ionotropic, NMDA 2D, with GluN1 (Rattus norvegicus, UniProt Q62645)): 160000 ± 10000 M⁻¹ s⁻¹
O=C(O)c1cc(F)cc2[nH]c(S(=O)(=O)O)nc12  Ki (racE (Bacillus subtilis, UniProt P94556)): 2.5 ± 0.4 µM
CC#C/C(=N\OC[C@H]1COCCN1)c1ccc2ncnc(Nc3ccc(OCc4cccc(F)c4)c(Cl)c3)c2c1  inhibition (PTK2B (Homo sapiens, UniProt Q14289); kinase activity; 10 µM): 13.3%
Cc1cc(O)c2c(c1)C(=O)c1cc(O)cc(O)c1C2=O  Ki (dengue virus 2 NS2B-NS3 protease; inhibitor; TSV01): 508 ± 47 µM
CC1(C)S[C@@H]2CS[C@@H](CS)N2[C@H]1C(=O)O  Ki (VIM-2 (Escherichia coli, UniProt Q5U7L7); nitrocefin hydrolysis, slow-binding inhibitor; Pseudomonas aeruginosa; with: nitrocefin): 0.1 ± 0.03 µM
CCN1CCN(Cc2ccc(NC(=O)c3ccc(C)c(/C=C/c4cnc5[nH]ccc5c4OC)c3)cc2C(F)(F)F)CC1  log2 fold change (FCHSD1-BRAF fusion; kinase-CDC37 interaction, cell-based kinome screen; 5 µM; relative to: vehicle): 0.051
CCN(CC)c1ccc(CN(c2ccc(C)cc2)S(=O)(=O)c2ccc(OC)cc2)cc1  Ki (CNR2 (Homo sapiens, UniProt P34972); inverse agonist, radioligand competition binding): 0.0005 µM
O=c1ccn([C@@H]2O[C@H](COP(=O)(O)OP(=O)(O)O[C@H]3O[C@H](CO)[C@@H](O)[C@H](O)[C@H]3O)[C@@H](O)[C@H]2O)c(=S)[nH]1  Ki (P2Y purinoceptor 14 (P2RY14, Homo sapiens, UniProt Q15391); flow cytometry; CHO cells expressing target; 30 min, with: fluorescent tracer 50 nM): 0.34 ± 0.04 µM
NC(=O)c1cccc(CCN(CC[C@H](N)C(=O)O)C[C@H]2O[C@@H](n3cnc4c(N)ncnc43)[C@H](O)[C@@H]2O)c1  Ki (NNMT (Homo sapiens, UniProt P40261); binding, fluorescence polarisation competition; 30 min, room temperature, enzyme 0.5 µM, with: fluorescent probe 5 nM): 11.3 ± 1.8 µM
CCCN1CCN(c2ccc3c(c2)C2CC3CCN2C(=O)OCc2ccccc2)CC1 (stereo not drawn)  Ki (DRD1 (Homo sapiens, UniProt P21728); binding, radioligand binding): > 10 µM
CSc1nc(Cl)cc(Sc2nnc(-c3cc(C(F)(F)F)cc(C(F)(F)F)c3)[nH]2)n1  MIC (Acinetobacter baumannii; ATCC 9955; with: PMBN 25 µg/mL): 1 mg/L (≈ 2.12 µM)
